Results from different studies.
Protocols differ between the studies behind these lines. ± marks the error that the study gave.

| SMILES | assay | system | conditions | Tmax [h] |
| --- | --- | --- | --- | --- |
| Cc1nc(Nc2ncc(C(=O)Nc3c(C)cccc3Cl)s2)cc(N2CCN(CCO)CC2)n1 |  | Sprague-Dawley rat, female, plasma | intraperitoneal, 5 mg/kg, added: rosiglitazone co-dosed | 0.62 ± 0.41 |
| COc1cccc(-c2n[nH]c(SCc3ccccn3)n2)c1OC |  | Sprague-Dawley rat, both sexes, plasma | oral, diet, 10 mg/kg/day, day 7 | 6 |
| CCN1CCN(c2ccc(Nc3cc(N(C)C(=O)Nc4c(Cl)c(OC)cc(OC)c4Cl)ncn3)cc2)CC1 |  | Crl:WI(Han) rat, juvenile female, plasma | oral gavage, 0.1 mg/kg/day, postnatal day 17 | 1 |
| O=C(/C=C/c1ccc(O)c2c1[C@H](C(=O)O)[C@@H](c1ccc(O)c(O)c1)O2)O[C@H](Cc1ccc(O)c(O)c1)C(=O)O | UPLC-MS/MS | Wistar rat, microcirculation dysfunction model, plasma | oral, 100 mg/kg Salvia miltiorrhiza stem-leaf extract FS | 1.92 ± 1.63 |
| CC(C)=CCC[C@](C)(O[C@@H]1O[C@H](CO)[C@@H](O)[C@H](O)[C@H]1O)[C@H]1CC[C@]2(C)[C@@H]1[C@H](O)C[C@@H]1[C@@]3(C)CC[C@H](O[C@@H]4O[C@H](CO)[C@@H](O)[C@H](O)[C@H]4O[C@@H]4O[C@H](CO)[C@@H](O)[C@H](O)[C@H]4O)C(C)(C)[C@@H]3CC[C@]12C |  | Sprague-Dawley rat, plasma | oral, 200 mg/kg ginseng extract, control diet 2 weeks before dosing | 9.6 ± 5.3 |
| O=C(O)C[C@H](O)C[C@H](O)/C=C/c1c(C2CC2)nc2ccccc2c1-c1ccc(F)cc1 |  | male Sprague-Dawley rat (wild type), plasma | oral, 5 mg/kg | 1.58 ± 0.86 |
| CC(C)=CCC[C@](C)(O[C@@H]1O[C@H](CO[C@@H]2O[C@H](CO)[C@@H](O)[C@H](O)[C@H]2O)[C@@H](O)[C@H](O)[C@H]1O)[C@H]1CC[C@]2(C)[C@@H]1[C@H](O)C[C@@H]1[C@@]3(C)CC[C@H](O[C@@H]4O[C@H](CO)[C@@H](O)[C@H](O)[C@H]4O[C@@H]4O[C@H](CO)[C@@H](O)[C@H](O)[C@H]4O)C(C)(C)[C@@H]3CC[C@]12C |  | Sprague Dawley rat, male, plasma | oral, 86 mg/kg, mixture of pure ginsenosides | 8 ± 2.2 |
| CCc1oc2cc(OC)ccc2c1C(=O)c1cc(Br)c(O)c(Br)c1 |  | male Sprague-Dawley rat, whole blood | oral, 16.3 mg/kg, CMC vehicle | ~7 |
| O=C(O)/C=C/c1ccc(O)c(O)c1 | UPLC-MS/MS | Wistar rat, microcirculation dysfunction model, plasma | oral, 100 mg/kg Salvia miltiorrhiza stem-leaf extract FT | 0.67 ± 0.37 |
| CC(C)(C)NC(=O)[C@@H]1C[C@@H]2CCCC[C@@H]2CN1C[C@@H](O)[C@H](Cc1ccccc1)NC(=O)[C@H](CC(N)=O)NC(=O)c1ccc2ccccc2n1 |  | rat, plasma | oral, 30 mg/kg, added: resveratrol 20 mg/kg oral | ~0.25 |
| CS(=O)(=O)c1ccc(-c2cnc(N)c(-c3ccc(C(F)(F)F)nc3)c2)cc1 |  | Sprague-Dawley rat, pregnant female, plasma | oral, 30 mg/kg/day, gestation day 17 | 8 |
| O=C(/C=C/c1ccc(O)c(O)c1)O[C@H](Cc1ccc(O)c(O)c1)C(=O)O | UPLC-MS/MS | Wistar rat, microcirculation dysfunction model, plasma | oral, 100 mg/kg Salvia miltiorrhiza stem-leaf extract FS | 1 |
| CC(C)=CCC[C@](C)(O[C@@H]1O[C@H](CO)[C@@H](O)[C@H](O)[C@H]1O)[C@H]1CC[C@]2(C)[C@@H]1[C@H](O)C[C@@H]1[C@@]3(C)CC[C@H](O[C@@H]4O[C@H](CO)[C@@H](O)[C@H](O)[C@H]4O)C(C)(C)[C@@H]3CC[C@]12C |  | Sprague-Dawley rat, plasma | oral, 100 mg/kg of parent ginsenoside, control group, no prebiotic | 8 ± 2 |
| Cn1nnc2c(C(N)=O)ncn2c1=O |  | male athymic rat, intracranial U87 glioma, tumour extracellular fluid | oral, 50 mg/kg, uncorrected microdialysis, median, added: before cediranib | 1.5 |
| CCCC[C@H](NC(C)=O)C(=O)N[C@H]1CCC(=O)NC[C@@H](C(=O)N[C@@H](Cc2c[nH]c3ccccc23)C(N)=O)NC(=O)[C@H](CCCNC(=N)N)NC(=O)[C@@H](Cc2ccccc2)NC(=O)[C@H](Cc2c[nH]cn2)NC1=O |  | CD Sprague Dawley rat, female, plasma | subcutaneous, 1.0 mg/kg daily, day 1 | 0.5 |
| CC(C)=CCC[C@](C)(O[C@@H]1O[C@H](CO)[C@@H](O)[C@H](O)[C@H]1O)[C@H]1CC[C@]2(C)[C@@H]1[C@H](O)C[C@@H]1[C@@]3(C)CC[C@H](O[C@@H]4O[C@H](CO)[C@@H](O)[C@H](O)[C@H]4O[C@@H]4O[C@H](CO)[C@@H](O)[C@H](O)[C@H]4O)C(C)(C)[C@@H]3CC[C@]12C |  | Sprague Dawley rat, male, plasma | oral, 42 mg/kg, frozen ginseng extract | 0.8 ± 0.13 |
| O=C(O)C[C@H](O)C[C@H](O)/C=C/c1c(C2CC2)nc2ccccc2c1-c1ccc(F)cc1 |  | male Sprague Dawley rat, control, plasma | oral, 2.5 mg/kg, median, added: silymarin 500 mg/kg oral | 1 |
| C=CC(=O)Nc1cc(Nc2nccc(-c3cn(C)c4ccccc34)n2)c(OC)cc1N(C)CCN(C)C |  | Sprague-Dawley rat, male, plasma | oral, 10 mg/kg, added: avitinib 30 mg/kg daily for 7 days | 8 |
| CC(C)=CCC[C@](C)(O[C@@H]1O[C@H](CO)[C@@H](O)[C@H](O)[C@H]1O)[C@H]1CC[C@]2(C)[C@@H]1[C@H](O)C[C@@H]1[C@@]3(C)CC[C@H](O)C(C)(C)[C@@H]3[C@@H](O[C@@H]3O[C@H](CO)[C@@H](O)[C@H](O)[C@H]3O[C@@H]3O[C@@H](C)[C@H](O)[C@@H](O)[C@H]3O)C[C@]12C |  | Sprague Dawley rat, male, plasma | oral, 45 mg/kg, frozen ginseng extract | 8 ± 1.2 |
| Cc1nc2cccc(OCC(C)(C)C(=O)NC(C)C)c2c(N)c1C(=O)O |  | male Sprague-Dawley rat, plasma | dietary, 100 mg/kg/day, day 7 | 3 |
| Cc1cc(-c2cc(OC(=O)c3ccccc3)ccc2Cl)cc2nnc(Nc3ccc(OCCN4CCCC4)cc3)nc12 |  | Long Evans rat, retina | topical, 1% | 1 |
| CC(C)=CCC[C@](C)(O[C@@H]1O[C@H](CO)[C@@H](O)[C@H](O)[C@H]1O)[C@H]1CC[C@]2(C)[C@@H]1[C@H](O)C[C@@H]1[C@@]3(C)CC[C@H](O)C(C)(C)[C@@H]3[C@@H](O[C@@H]3O[C@H](CO)[C@@H](O)[C@H](O)[C@H]3O)C[C@]12C |  | Sprague Dawley rat, male, plasma | oral, 25 mg/kg, red ginseng extract | 12.8 ± 2.1 |
| CCN(CC)Cc1cc(Nc2ccnc3cc(Cl)ccc23)ccc1O |  | rat, Wistar, male, plasma | oral, 60 mg/kg | 3.8 ± 1.35 |

A few entries again:
| SMILES | assay | system | conditions | Tmax [h] |
| --- | --- | --- | --- | --- |
| CCCC[C@H](NC(C)=O)C(=O)N[C@H]1CCC(=O)NC[C@@H](C(=O)N[C@@H](Cc2c[nH]c3ccccc23)C(N)=O)NC(=O)[C@H](CCCNC(=N)N)NC(=O)[C@@H](Cc2ccccc2)NC(=O)[C@H](Cc2c[nH]cn2)NC1=O |  | CD Sprague Dawley rat, female, plasma | subcutaneous, 1.0 mg/kg daily, day 1 | 0.5 |
| CC(C)=CCC[C@](C)(O[C@@H]1O[C@H](CO)[C@@H](O)[C@H](O)[C@H]1O)[C@H]1CC[C@]2(C)[C@@H]1[C@H](O)C[C@@H]1[C@@]3(C)CC[C@H](O[C@@H]4O[C@H](CO)[C@@H](O)[C@H](O)[C@H]4O[C@@H]4O[C@H](CO)[C@@H](O)[C@H](O)[C@H]4O)C(C)(C)[C@@H]3CC[C@]12C |  | Sprague Dawley rat, male, plasma | oral, 42 mg/kg, frozen ginseng extract | 0.8 ± 0.13 |
| Cc1nc2cccc(OCC(C)(C)C(=O)NC(C)C)c2c(N)c1C(=O)O |  | male Sprague-Dawley rat, plasma | dietary, 100 mg/kg/day, day 7 | 3 |
